# Results from different studies.
# Lines come from different studies, so protocols differ. Numbers after ± are the reported error.
# Sequence of UniProt P29371 (whole entry, looked up): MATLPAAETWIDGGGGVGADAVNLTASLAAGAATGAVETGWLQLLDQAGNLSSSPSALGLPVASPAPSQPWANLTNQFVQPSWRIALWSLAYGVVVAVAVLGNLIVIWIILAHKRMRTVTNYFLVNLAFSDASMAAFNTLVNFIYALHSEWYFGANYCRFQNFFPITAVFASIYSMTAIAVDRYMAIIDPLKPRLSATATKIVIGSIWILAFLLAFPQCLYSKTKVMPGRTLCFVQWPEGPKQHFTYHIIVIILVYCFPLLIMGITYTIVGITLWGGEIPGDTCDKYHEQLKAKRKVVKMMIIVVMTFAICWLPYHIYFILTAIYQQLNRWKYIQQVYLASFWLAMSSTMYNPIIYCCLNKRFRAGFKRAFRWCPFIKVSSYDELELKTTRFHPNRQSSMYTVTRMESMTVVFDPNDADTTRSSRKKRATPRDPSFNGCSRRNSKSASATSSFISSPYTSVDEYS
# Sequence of UniProt Q9NRM7 (whole entry, looked up): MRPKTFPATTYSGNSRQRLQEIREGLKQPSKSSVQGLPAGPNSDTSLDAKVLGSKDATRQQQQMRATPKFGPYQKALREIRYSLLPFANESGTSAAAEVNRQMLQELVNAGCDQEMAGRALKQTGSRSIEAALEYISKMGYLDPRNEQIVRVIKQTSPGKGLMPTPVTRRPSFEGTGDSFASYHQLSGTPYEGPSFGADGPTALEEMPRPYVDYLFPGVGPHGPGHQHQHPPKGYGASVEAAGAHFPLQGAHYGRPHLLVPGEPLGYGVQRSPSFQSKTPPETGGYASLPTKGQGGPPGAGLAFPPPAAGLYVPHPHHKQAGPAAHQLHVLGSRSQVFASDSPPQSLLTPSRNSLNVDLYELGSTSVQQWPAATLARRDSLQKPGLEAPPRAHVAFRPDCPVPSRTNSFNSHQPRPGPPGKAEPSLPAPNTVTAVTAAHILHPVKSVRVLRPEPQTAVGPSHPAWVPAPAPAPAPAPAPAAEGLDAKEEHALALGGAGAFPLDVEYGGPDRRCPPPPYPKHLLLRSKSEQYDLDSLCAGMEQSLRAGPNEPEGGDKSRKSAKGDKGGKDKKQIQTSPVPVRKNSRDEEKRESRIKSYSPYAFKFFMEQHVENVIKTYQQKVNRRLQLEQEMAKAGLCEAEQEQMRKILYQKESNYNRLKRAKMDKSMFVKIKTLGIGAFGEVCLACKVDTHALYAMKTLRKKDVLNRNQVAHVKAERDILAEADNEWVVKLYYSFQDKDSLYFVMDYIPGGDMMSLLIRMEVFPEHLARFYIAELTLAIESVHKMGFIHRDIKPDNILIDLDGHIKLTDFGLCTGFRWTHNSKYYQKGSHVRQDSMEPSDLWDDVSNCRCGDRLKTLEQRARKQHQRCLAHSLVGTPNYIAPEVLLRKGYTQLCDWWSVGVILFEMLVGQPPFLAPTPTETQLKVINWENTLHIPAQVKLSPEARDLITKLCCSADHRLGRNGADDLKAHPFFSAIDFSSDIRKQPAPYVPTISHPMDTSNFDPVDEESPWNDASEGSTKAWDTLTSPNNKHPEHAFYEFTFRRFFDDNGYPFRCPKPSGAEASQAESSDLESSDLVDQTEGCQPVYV
# Sequence of UniProt P41743 (whole entry, looked up): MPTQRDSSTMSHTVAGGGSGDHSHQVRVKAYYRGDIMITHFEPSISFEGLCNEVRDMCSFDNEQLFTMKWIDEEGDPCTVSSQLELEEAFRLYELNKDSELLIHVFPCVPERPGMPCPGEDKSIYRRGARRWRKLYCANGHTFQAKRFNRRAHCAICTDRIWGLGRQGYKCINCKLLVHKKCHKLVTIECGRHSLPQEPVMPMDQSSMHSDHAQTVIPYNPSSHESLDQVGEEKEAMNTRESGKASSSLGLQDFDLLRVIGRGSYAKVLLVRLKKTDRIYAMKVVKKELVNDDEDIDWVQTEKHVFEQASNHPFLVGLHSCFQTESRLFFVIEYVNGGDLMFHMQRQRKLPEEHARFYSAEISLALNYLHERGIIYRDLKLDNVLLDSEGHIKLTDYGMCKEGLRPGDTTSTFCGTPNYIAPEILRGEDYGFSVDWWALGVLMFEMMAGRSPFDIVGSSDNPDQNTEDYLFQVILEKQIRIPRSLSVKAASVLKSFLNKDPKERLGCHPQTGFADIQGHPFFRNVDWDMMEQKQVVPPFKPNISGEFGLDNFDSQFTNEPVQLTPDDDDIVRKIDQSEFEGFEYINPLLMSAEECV
# Sequence of UniProt P21554 (whole entry, unmodified, looked up): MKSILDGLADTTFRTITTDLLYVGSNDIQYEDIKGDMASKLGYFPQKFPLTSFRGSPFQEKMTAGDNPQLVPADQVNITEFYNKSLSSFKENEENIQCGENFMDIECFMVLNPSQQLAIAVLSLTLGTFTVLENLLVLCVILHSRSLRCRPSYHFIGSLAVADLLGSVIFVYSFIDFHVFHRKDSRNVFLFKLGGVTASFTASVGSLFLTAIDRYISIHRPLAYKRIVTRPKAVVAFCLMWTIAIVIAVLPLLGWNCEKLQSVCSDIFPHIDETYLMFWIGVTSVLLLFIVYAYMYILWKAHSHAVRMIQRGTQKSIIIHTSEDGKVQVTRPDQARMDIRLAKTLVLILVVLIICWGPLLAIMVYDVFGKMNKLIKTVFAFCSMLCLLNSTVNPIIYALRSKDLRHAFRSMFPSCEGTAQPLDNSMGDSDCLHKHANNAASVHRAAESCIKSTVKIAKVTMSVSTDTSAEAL
# Sequence of UniProt Q91ZH7 (whole entry, looked up): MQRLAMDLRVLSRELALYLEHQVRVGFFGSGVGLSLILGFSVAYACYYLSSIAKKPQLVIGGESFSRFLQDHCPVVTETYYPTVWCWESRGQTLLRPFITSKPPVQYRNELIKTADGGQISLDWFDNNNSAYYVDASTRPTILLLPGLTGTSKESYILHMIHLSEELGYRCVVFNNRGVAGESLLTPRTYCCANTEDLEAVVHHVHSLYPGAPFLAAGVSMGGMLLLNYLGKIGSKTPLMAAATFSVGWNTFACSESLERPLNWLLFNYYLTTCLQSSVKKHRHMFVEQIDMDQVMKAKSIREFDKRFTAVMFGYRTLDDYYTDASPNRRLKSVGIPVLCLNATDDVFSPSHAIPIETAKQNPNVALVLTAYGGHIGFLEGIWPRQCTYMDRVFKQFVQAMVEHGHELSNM
# Sequence of UniProt P48730 (whole entry, looked up): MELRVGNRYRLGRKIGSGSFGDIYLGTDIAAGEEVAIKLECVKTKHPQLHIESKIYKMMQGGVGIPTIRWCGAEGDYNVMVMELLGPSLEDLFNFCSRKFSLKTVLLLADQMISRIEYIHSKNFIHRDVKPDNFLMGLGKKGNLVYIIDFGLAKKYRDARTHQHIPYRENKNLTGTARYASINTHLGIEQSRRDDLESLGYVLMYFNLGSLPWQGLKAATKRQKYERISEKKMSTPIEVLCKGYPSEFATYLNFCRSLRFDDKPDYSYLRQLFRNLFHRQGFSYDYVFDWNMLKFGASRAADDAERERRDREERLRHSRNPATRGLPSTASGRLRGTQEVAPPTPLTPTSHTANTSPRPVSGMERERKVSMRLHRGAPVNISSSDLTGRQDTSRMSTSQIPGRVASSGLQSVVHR
# Sequence of UniProt Q9P289 (whole entry, looked up): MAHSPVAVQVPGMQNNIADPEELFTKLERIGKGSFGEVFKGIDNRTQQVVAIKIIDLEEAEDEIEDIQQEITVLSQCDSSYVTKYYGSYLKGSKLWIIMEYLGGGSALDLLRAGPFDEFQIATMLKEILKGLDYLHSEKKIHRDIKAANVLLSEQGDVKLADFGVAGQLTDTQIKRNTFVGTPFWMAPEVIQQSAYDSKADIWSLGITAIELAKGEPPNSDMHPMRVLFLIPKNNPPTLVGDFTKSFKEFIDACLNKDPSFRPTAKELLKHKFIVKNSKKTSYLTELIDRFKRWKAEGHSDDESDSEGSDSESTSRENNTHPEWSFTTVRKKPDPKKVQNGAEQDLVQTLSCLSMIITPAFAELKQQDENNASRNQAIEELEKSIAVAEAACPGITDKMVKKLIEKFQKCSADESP
# Sequence of UniProt Q13188 (whole entry, looked up): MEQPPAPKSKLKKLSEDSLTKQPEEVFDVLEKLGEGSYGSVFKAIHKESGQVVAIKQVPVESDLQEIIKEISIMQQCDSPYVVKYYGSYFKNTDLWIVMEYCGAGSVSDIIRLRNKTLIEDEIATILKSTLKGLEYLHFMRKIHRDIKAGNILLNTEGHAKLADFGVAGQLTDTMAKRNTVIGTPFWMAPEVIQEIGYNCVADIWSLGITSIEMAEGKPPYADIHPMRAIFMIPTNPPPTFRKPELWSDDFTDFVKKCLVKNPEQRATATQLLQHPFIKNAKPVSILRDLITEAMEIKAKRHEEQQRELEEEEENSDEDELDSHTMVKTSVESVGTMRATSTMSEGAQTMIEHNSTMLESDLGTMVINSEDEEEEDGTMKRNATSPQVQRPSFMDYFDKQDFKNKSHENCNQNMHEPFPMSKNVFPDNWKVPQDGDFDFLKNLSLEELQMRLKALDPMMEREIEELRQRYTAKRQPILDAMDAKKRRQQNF
SMILES,target,assay,system,conditions,how to read,measurement,result
N[C@H](C(=O)N1CCCC1)C1CCN(c2nccc3c(-c4ncc(Cl)cc4Cl)cccc23)CC1,"Serine/threonine-protein kinase 3 (STK3, Homo sapiens, UniProt Q13188)","kinase activity, inhibitor",,"10 µM, added: ATP 1 mM",,inhibition,-4.8%
CS(C)(=O)=Nc1ccc(-c2ccc(-c3nc4cc(O[C@@H]5CO[C@H]6[C@@H]5OC[C@H]6O)[nH]c4cc3F)cc2)cc1,PCP site,binding,,10 µM,,inhibition,9%
CN(C)[C@H]1C[C@@]23CC[C@@]4(O2)C(=CC[C@]2(C)[C@@H](c5ccc6ccncc6c5)CC[C@H]24)C=C3[C@@H](O)[C@@H]1O,"Serine/threonine-protein kinase LATS2 (LATS2, Homo sapiens, UniProt Q9NRM7)","ATP probe labelling, inhibitor, KiNativ profiling",,1 µM,,inhibition,-1.4%
Nc1ccc(/C=C/C(=O)N2CCc3c(oc4c(-c5ccc(F)cc5)cc(-c5ccc(C(=O)N6CCC(F)(F)CC6)cn5)cc34)C2)cn1,"Casein kinase I isoform delta (CSNK1D, Homo sapiens, UniProt P48730)","binding, competition with immobilised ligand",,1 µM,,remaining binding,100%
CC(C)CC(O)(CC(C)C)c1cn(C(=O)N2CCCC2)nn1,"Phospholipase ABHD3 (Abhd3, Mus musculus, UniProt Q91ZH7)","probe labelling, inhibitor, item: Abhd3","mouse, brain","i.p., 0.8 mg/kg, 4 h, protein level","baseline: treated over vehicle mice, lower = stronger inhibition",activity ratio-of-ratios,0.6
O=C1NC(=O)c2c1c1cc(F)c[n+]3c1c1c2c2cc(O)ccc2[n]1[Ru-4]312([N]=C=S)[S+]3CC[S+]1CC[S+]2CC3 (stereo not drawn),"Protein kinase C iota type (PRKCI, Homo sapiens, UniProt P41743)",enzyme activity,,"100 nM, human enzyme, added: 10 µM ATP",baseline: untreated,remaining activity,87%
Cc1ccc2c(C(C[N+](=O)[O-])c3cccs3)c(-c3ccccc3)[nH]c2c1 (stereo not drawn),"Cannabinoid receptor 1 (CNR1, Homo sapiens, UniProt P21554, L387A)","Gαi1-γ2 dissociation, BRET",,,,Emax,99.1 ± 5.27%
CC(C)[C@H]1NC(=O)C[C@H]2/C=C/CCSSC[C@@H](NC1=O)C(=O)N[C@H](Cc1cccc3ccccc13)C(=O)NCC(=O)O2,"Serine/threonine-protein kinase 26 (STK26, Homo sapiens, UniProt Q9P289)","enzyme activity, inhibitor",,10 µM,,inhibition,7%
Cc1sc2c(c1C)C(c1ccc(Cl)cc1)=NC(CC(=O)OC(C)(C)C)c1nnc(C)n1-2 (stereo not drawn),"Neuromedin-K receptor (TACR3, Homo sapiens, UniProt P29371)","ligand displacement, radioligand",,1 µM,,inhibition,-23%
